Measured values from different studies.
Each line is one published result; not all experiments were run side by side. “And” joins repeats or separate records; there may be more than shown. ± gives the spread as reported.

NC/C(=C\F)COc1cccc(Cn2c(=S)[nH]c(=O)c3[nH]cnc32)c1  tissue concentration (C57BL/6J mice, plasma; oral, 15 mg/kg single, 2 h): 159 ng/mL
O=C[C@H]([18F])[C@@H](O)[C@H](O)[C@H](O)CO  tissue uptake (Kunming mice, turpentine inflammation, normal muscle; intravenous, 0.74 MBq, 60 min): 0.95 ± 0.07 %ID/g
N=C(N)NCCC[C@H](NCC(=O)[C@@H](O)[C@H](O)[C@H](O)CO)C(=O)O  tissue concentration (UPLC-MS/MS; C57BL/6J mice, hippocampus; intraperitoneal, dose not given, 15 min): 4 ± 2 pmol/mg tissue
COCCCOc1cc2c(cc1OC)-c1cc(=O)c(C(=O)O)cn1[C@H](C(C)C)C2  tissue concentration (CD-1 mice, sciatic nerve; oral, 10 mg/kg): > 500 ng/g and < 1000 ng/g
CC(C)NCCCC[C@@H]1NC(=O)[C@H](Cc2ccc(O)cc2)NC(=O)[C@H](Cc2ccccc2)NC(=O)CC[C@H](C(=O)N[C@@H](CCCCNC(C)C)C(=O)N[C@@H](CCCCNC(=O)[C@H](CCC(=O)O)NC(=O)[C@H](CCC(=O)O)NC(=O)[C@H](CCC(=O)O)NC(=O)CN2CCN(CC(=O)O)CCN(CC(=O)O)CCN(CC(=O)O)CC2)C(N)=O)NC(=O)CNC(=O)[C@H](Cc2ccc3ccccc3c2)NC(=O)[C@@H](CCCNC(=N)N)NC1=O [gallium-68 labelled]  tissue uptake (ex vivo biodistribution; male mice, Granta-519 xenograft, adrenals; intravenous, 1 h post-injection): 0.2 %ID/g
CSc1cc(C)nc(SC)c1NC(=O)CN1CCN(CCSc2nc3ccccc3[nH]2)CC1.Cl  tissue concentration (female Crl:CD1 (ICR) mice, olfactory bulb; intranasal, 10 µL solution daily, 120 min, 7 days dosing): 1.5 ng/g and 3.9 ng/g
C[C@H](NC(=O)[C@H](CCC(N)=O)NC(=O)[C@H](C)NC(=O)[C@H](CCCNC(=N)N)NC(=O)[C@H](CCC(N)=O)NC(=O)[C@H](C)NC(=O)[C@H](CCCNC(=N)N)NC(=O)[C@H](CCC(N)=O)NC(=O)[C@H](C)NC(=O)[C@H](CCC(N)=O)NC(=O)[C@H](CCCNC(=N)N)NC(=O)[C@H](C)NC(=O)[C@H](CCC(N)=O)NC(=O)[C@H](CCCNC(=N)N)NC(=O)[C@H](C)NC(=O)[C@H](CCC(N)=O)NC(=O)[C@H](C)NC(=O)[C@H](CCCNC(=N)N)NC(=O)[C@H](CCC(N)=O)NC(=O)[C@H](C)NC(=O)[C@H](CCCNC(=N)N)NC(=O)[C@H](CO)NC(=O)[C@H](Cc1ccc(O)c(I)c1)NC(=O)CNC(=O)CNC(=O)CN)C(=O)N[C@@H](CCCNC(=N)N)C(=O)N[C@@H](CCC(N)=O)C(=O)N[C@@H](C)C(=O)N[C@@H](CCCNC(=N)N)C(=O)N[C@@H](CCC(N)=O)C(=O)O [iodine-125 labelled]  tissue uptake (H2/IL-6 transgenic BALB/c mice, both sexes, liver; intravenous, 4 h): 8 %ID/g
O=C(CCCCCCC(=O)Nc1ccc(CC[18F])cc1)NO  tissue uptake (athymic nu/nu male mice, LNCaP xenograft, muscle; intravenous, 1 h): 1.4 ± 0.3 %ID/g
OCc1nc2ccc(NCc3ccc(C(F)(F)F)cc3)cc2[nH]1  tissue concentration (Balb/c mice, male, lungs; oral, 10 mg/kg, 48 h): not detected

A few entries again:
NC/C(=C\F)COc1cccc(Cn2c(=S)[nH]c(=O)c3[nH]cnc32)c1  tissue concentration (C57BL/6J mice, plasma; oral, 15 mg/kg single, 2 h): 159 ng/mL
